{"data": "Measured values from different studies", "note": "Parts stem from different laboratories: compare values within a part only.", "UniProt Q8IWQ3, sequence (whole entry, looked up)": "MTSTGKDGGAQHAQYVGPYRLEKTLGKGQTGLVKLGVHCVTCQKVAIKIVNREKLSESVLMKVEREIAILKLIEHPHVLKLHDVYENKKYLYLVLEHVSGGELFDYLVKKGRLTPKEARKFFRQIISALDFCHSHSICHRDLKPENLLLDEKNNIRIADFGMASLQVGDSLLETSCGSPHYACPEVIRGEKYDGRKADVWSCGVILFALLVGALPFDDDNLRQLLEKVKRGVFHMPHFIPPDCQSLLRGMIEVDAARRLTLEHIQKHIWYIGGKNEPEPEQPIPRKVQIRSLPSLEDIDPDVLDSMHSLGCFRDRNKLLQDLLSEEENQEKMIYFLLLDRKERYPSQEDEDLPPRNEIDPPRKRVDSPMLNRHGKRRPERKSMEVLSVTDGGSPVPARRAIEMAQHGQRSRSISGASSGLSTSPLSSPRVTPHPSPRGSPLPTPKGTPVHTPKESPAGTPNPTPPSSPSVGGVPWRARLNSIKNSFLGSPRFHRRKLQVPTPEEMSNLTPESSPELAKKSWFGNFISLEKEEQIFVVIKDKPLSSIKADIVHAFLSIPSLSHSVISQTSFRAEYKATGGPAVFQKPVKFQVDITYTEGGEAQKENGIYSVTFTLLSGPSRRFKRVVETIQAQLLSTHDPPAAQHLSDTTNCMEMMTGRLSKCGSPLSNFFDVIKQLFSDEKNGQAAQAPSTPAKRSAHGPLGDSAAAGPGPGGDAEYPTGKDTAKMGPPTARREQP", "UniProt Q05513, sequence (whole entry, looked up)": "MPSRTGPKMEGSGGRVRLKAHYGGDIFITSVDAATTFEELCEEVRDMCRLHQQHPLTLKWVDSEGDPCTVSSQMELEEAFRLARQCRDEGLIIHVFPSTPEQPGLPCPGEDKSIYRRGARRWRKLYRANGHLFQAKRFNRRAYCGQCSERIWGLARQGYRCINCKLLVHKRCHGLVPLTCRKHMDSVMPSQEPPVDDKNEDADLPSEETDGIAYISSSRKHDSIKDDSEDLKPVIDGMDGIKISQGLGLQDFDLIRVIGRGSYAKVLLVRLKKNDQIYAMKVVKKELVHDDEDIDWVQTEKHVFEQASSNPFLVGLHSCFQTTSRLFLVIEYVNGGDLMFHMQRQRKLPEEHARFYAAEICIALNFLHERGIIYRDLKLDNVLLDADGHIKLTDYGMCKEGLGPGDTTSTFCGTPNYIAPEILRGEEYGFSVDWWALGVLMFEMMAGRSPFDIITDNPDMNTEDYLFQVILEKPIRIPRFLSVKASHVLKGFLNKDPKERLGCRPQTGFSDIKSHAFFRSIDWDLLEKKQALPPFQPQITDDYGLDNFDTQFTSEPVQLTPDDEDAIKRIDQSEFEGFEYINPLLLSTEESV", "UniProt P09769, sequence (whole entry, looked up)": "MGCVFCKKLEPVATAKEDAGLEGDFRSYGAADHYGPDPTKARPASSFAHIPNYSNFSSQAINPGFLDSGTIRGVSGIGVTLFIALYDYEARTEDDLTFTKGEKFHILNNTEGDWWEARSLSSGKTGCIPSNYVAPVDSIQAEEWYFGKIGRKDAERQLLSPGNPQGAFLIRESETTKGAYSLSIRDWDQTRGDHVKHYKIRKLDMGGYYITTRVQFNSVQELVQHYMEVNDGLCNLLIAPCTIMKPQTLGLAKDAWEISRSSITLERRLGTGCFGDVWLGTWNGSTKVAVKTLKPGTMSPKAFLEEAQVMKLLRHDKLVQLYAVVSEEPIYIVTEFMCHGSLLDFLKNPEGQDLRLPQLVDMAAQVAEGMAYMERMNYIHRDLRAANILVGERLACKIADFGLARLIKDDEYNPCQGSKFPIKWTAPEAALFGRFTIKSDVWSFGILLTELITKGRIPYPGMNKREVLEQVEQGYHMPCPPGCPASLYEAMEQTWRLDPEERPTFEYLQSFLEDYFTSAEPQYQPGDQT", "UniProt Q02779, sequence (whole entry, looked up)": "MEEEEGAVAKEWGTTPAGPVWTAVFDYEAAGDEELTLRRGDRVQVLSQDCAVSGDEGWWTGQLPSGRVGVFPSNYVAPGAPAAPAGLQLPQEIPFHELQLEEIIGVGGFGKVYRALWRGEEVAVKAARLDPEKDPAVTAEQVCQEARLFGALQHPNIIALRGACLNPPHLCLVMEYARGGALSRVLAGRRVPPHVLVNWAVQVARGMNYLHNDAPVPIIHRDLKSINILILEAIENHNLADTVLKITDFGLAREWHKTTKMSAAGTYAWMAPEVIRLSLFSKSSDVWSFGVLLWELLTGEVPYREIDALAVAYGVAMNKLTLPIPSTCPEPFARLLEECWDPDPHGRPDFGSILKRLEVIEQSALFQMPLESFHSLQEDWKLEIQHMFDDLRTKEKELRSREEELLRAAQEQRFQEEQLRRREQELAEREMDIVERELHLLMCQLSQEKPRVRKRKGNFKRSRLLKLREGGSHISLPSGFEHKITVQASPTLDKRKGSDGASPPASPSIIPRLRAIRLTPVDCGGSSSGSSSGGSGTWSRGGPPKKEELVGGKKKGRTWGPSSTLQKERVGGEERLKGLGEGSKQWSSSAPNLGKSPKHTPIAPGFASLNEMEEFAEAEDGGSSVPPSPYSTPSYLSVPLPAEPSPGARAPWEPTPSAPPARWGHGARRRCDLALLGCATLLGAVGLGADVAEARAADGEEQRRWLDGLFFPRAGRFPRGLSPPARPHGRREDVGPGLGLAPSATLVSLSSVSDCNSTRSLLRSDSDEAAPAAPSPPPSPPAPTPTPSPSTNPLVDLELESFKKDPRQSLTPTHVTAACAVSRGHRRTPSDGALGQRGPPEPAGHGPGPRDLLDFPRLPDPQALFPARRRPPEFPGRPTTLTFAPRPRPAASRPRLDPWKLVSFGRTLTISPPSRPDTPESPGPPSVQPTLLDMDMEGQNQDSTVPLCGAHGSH", "UniProt O60285, sequence (whole entry, looked up)": "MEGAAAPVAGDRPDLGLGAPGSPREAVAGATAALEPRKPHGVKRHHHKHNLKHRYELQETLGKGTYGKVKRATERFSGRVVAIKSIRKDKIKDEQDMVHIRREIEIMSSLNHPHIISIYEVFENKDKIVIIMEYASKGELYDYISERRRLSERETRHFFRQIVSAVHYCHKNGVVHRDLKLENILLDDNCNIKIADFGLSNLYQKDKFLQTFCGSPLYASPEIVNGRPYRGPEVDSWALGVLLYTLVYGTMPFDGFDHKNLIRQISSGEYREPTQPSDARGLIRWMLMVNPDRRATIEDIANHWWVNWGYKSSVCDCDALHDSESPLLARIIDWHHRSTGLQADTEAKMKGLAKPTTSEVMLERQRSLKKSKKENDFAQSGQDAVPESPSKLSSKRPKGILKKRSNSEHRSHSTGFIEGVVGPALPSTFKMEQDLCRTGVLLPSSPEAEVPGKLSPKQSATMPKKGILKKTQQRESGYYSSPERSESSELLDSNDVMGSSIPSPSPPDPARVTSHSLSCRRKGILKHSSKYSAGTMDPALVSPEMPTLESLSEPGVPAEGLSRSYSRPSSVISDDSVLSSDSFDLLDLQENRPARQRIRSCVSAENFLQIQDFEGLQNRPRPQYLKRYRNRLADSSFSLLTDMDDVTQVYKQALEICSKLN", "UniProt P45985, sequence (whole entry, looked up)": "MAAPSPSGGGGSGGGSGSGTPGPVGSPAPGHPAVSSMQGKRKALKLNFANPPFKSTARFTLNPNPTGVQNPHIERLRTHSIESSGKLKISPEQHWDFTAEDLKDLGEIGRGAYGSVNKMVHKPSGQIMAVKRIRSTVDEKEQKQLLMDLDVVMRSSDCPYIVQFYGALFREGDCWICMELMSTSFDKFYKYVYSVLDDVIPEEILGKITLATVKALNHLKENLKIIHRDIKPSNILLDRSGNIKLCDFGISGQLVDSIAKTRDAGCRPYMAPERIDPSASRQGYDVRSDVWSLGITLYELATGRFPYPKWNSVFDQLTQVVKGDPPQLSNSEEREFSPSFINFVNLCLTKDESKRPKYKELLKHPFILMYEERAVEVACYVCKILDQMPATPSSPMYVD", "UniProt Q13470, sequence (whole entry, looked up)": "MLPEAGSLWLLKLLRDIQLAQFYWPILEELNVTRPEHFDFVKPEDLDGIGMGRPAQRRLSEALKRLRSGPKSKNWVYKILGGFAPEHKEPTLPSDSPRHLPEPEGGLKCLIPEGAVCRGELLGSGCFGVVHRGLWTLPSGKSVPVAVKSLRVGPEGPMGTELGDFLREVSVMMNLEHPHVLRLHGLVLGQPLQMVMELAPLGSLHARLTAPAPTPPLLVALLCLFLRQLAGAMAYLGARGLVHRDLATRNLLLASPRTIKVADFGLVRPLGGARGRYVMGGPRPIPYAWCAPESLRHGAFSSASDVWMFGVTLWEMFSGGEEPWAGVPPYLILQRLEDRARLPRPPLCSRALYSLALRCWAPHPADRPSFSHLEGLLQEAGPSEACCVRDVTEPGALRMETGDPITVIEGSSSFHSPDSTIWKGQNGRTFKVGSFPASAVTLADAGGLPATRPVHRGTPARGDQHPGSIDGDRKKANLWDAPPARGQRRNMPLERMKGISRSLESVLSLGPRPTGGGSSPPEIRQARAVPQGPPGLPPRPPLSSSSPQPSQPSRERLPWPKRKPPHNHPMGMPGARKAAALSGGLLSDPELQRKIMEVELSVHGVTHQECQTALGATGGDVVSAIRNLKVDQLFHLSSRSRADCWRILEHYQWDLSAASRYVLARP", "UniProt O75716, sequence (whole entry, looked up)": "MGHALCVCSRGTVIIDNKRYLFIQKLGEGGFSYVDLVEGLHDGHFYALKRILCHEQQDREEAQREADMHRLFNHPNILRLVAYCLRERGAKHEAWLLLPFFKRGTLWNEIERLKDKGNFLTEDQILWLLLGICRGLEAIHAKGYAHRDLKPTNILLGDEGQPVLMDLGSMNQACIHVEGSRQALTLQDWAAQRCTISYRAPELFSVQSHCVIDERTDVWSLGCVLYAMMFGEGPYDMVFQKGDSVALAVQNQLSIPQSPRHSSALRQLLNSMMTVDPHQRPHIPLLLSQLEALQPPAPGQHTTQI"}
{"data": "Series 1", "Compound": "O=C(N[C@H]1CCCCC/C=C\\C2C[C@@]2(C(=O)O)NC(=O)[C@@H]2C[C@@H](Oc3ccncc3)CN2C1=O)OC1CCCC1 (stereo partly drawn)", "method": "competition with immobilised ligand", "concentration": "1 µM"}
{"target": "Protein kinase C theta type (PRKCQ, Homo sapiens, UniProt Q04759)", "assay": "cell-free assay", "remaining binding": "100%"}
{"target": "Serine/threonine-protein kinase 16 (STK16, Homo sapiens, UniProt O75716)", "assay": "binding", "remaining binding": "79%"}
{"target": "Mitogen-activated protein kinase kinase kinase kinase 2 (MAP4K2, Homo sapiens, UniProt Q12851)", "assay": "binding", "remaining binding": "100%"}
{"target": "Dual specificity mitogen-activated protein kinase kinase 4 (MAP2K4, Homo sapiens, UniProt P45985)", "assay": "binding", "remaining binding": "73%"}
{"target": "Mast/stem cell growth factor receptor Kit (KIT, Homo sapiens, UniProt P10721, D816V)", "assay": "binding", "remaining binding": "90%"}
{"target": "Serine/threonine-protein kinase BRSK2 (BRSK2, Homo sapiens, UniProt Q8IWQ3)", "assay": "binding", "remaining binding": "100%"}
{"target": "Receptor-type tyrosine-protein kinase FLT3 (FLT3, Homo sapiens, UniProt P36888, N841I)", "assay": "binding", "remaining binding": "100%"}
{"target": "Non-receptor tyrosine-protein kinase TNK1 (TNK1, Homo sapiens, UniProt Q13470)", "assay": "binding", "remaining binding": "100%"}
{"target": "Dual serine/threonine and tyrosine protein kinase (DSTYK, Homo sapiens, UniProt Q6XUX3)", "assay": "binding", "remaining binding": "100%"}
{"target": "Wee1-like protein kinase 2 (WEE2, Homo sapiens, UniProt P0C1S8)", "assay": "binding", "remaining binding": "100%"}
{"target": "Tyrosine-protein kinase Fgr (FGR, Homo sapiens, UniProt P09769)", "assay": "cell-free assay", "remaining binding": "100%"}
{"target": "ALK tyrosine kinase receptor (ALK, Homo sapiens, UniProt Q9UM73, L1196M)", "assay": "cell-free assay", "remaining binding": "100%"}
{"target": "Citron Rho-interacting kinase (CIT, Homo sapiens, UniProt O14578)", "assay": "binding", "remaining binding": "89%"}
{"target": "Tyrosine-protein kinase ABL1, non-phosphorylated (ABL1, Homo sapiens, UniProt P00519, H396P)", "assay": "binding", "remaining binding": "81%"}
{"data": "Series 2", "Compound": "O=C(Nc1cnn(-c2csc(C(=O)NC3COC3)c2)c1)Nc1c(F)cccc1Cl", "read-out": "enzyme activity", "concentration": "5 µM"}
{"target": "Mitogen-activated protein kinase kinase kinase 10 (MAP3K10, Homo sapiens, UniProt Q02779)", "how to read": "reference: untreated control", "remaining activity": "92.3%"}
{"target": "Protein kinase C zeta type (PRKCZ, Homo sapiens, UniProt Q05513)", "how to read": "reference: untreated control", "remaining activity": "92.8%"}
{"target": "cAMP-dependent protein kinase catalytic subunit beta (PRKACB, Homo sapiens, UniProt P22694)", "how to read": "reference: untreated control", "remaining activity": "86.4%"}
{"target": "Serine/threonine-protein kinase DCLK1 (DCLK1, Homo sapiens, UniProt O15075)", "assay": "inhibitor", "remaining activity": "84.2%"}
{"target": "NUAK family SNF1-like kinase 1 (NUAK1, Homo sapiens, UniProt O60285)", "how to read": "reference: untreated control", "remaining activity": "94.1%"}
{"target": "Serine/threonine-protein kinase BRSK2 (BRSK2, Homo sapiens, UniProt Q8IWQ3)", "how to read": "reference: untreated control", "remaining activity": "98.8%"}
{"data": "Series 3", "species": "mouse", "matrix": "microsomes or S9", "concentration": "2 µM", "time": "0.5 h"}
{"Structure (SMILES)": "OC1(CNCc2ccccc2)CCc2ccccc21 (stereo not drawn)", "remaining compound [%]": 5.67}
{"Structure (SMILES)": "COc1cc(-c2coc3cc(O)c(OC)c(O)c3c2=O)cc(O)c1OC", "remaining compound [%]": 53.3}
{"Structure (SMILES)": "COc1ccc(Nc2nnc(-c3ccc(C)c(S(=O)(=O)NCc4ccccn4)c3)c3ccccc23)cc1C(N)=O", "remaining compound [%]": 3.75}
{"Structure (SMILES)": "O=c1ccc(-c2ccc(S(=O)(=O)NCc3cccc(Br)c3)s2)n[nH]1", "remaining compound [%]": 56.5}
{"Structure (SMILES)": "CC(c1ccc(NC(=O)N2CCC=C(F)C2)cc1)N1CCOCC1 (stereo not drawn)", "remaining compound [%]": 91.4}
{"Structure (SMILES)": "COc1ccc(OC)c(NC(=O)c2ccc(N(C)S(=O)(=O)c3ccc(OC)c(OC)c3)cc2)c1", "remaining compound [%]": 21.3}
{"Structure (SMILES)": "COn1c(Br)c(Br)c(Br)c1C(=O)Nc1ccc(Br)cc1", "remaining compound [%]": 30.4}
{"data": "Series 4", "Compound": "CC(C)n1cnc(-c2ccc(F)cc2)c1-c1ncc(C(=O)Nc2ccc(N3CCN(C)CC3)cc2)[nH]1", "method": "phase 2a trial", "species": "idiopathic pulmonary fibrosis patients"}
{"assay": "measured: immunoglobulins increased", "setting": "dose not given, grade 2, all arms pooled", "adverse event incidence": "0%"}
{"assay": "measured: weight decreased", "setting": "30 mg once daily, grade 4", "adverse event incidence": "0%"}
{"assay": "measured: QRS axis abnormal", "setting": "60 mg once daily, grade 5", "adverse event incidence": "0%"}
{"assay": "measured: hydroxybutyrate dehydrogenase increased", "setting": "dose not given, grade 5, all arms pooled", "adverse event incidence": "0%"}
{"assay": "measured: arthritis", "setting": "60 mg once daily, grade 5", "adverse event incidence": "0%"}
{"assay": "measured: chronic gastritis", "setting": "60 mg once daily, grade 5", "adverse event incidence": "0%"}
{"assay": "measured: hepatic enzyme abnormal", "setting": "30 mg once daily, grade 3", "adverse event incidence": "0%"}
{"assay": "measured: appendicitis", "setting": "dose not given, grade 2, all arms pooled", "adverse event incidence": "0%"}
{"assay": "measured: hydroxybutyrate dehydrogenase increased", "setting": "30 mg once daily, grade 1", "adverse event incidence": "0%"}
